Experimental data of several laboratories.
Numbers after ± are the reported error.
Organism: Plasmodium falciparum

For `O=C1C(O)=C([C@H]2CC[C@H](c3ccc(Cl)cc3)CC2)C(=O)c2ccccc21`, the IC50 was 13.7 ± 0.9 µM (growth; C2B; 96 h).
`CCOC(=O)Nc1ccc(NCc2ccc(F)cc2)nc1N` has an IC50 of 2.51 µM (GB4).
`CCN(CC)CCCC(C)Nc1ccnc2cc(Cl)ccc12` (stereo not drawn) has an IC50 of 0.0877 ± 0.005 µM (parasite growth; K1; 72 h).
For `CCN(CC)CCCC(C)Nc1ccnc2cc(Cl)ccc12` (stereo not drawn), the IC50 was 0.023 ± 0.001 µM (growth, [3H]-hypoxanthine uptake; Dd2; 48 h).
`N=C(N)NCCCCC(=O)Nc1cc(C(F)(F)F)cc(NC(=O)c2cc(C(=O)Nc3cc(C(F)(F)F)cc(NC(=O)CCCCNC(=N)N)c3O[C@@H]3CCNC3)ncn2)c1O[C@@H]1CCNC1` gave an IC50 of 0.865 µM (parasite growth, inhibitor, SYBR Green I; Cam3.1 R539T (MRA-1240)).
`C=CC[N+](C)(C)c1ccc(CCC(=O)CCc2ccc([N+](C)(C)CC=C)cc2)cc1` gave an IC50 of 0.1 µM (3D7).
The IC50 of `COc1nc2ccc(Br)cc2cc1[C@@H](c1ccccc1)[C@@](O)(CCN(C)C)c1cccc2ccccc12` is reported as 0.72 µM (parasite growth, inhibitor, SYBR Green I; Cam3.1 R539T (MRA-1240)).
For `N=C(CC(O)c1cc2c(F)cc(F)cc2c2cc(C(F)(F)F)ccc12)Nc1ccc(Br)cc1` (stereo not drawn), the IC50 was 0.013 µM.
The IC50 of `Cc1cc(NCCc2ccccc2)nc(N=C(N)Nc2ccc(Cl)cc2)n1` is reported as 1.11 µM (parasite growth, inhibitor, SYBR Green I; Cam3.1 R539T (MRA-1240)).
With `OC(CCCN1CCCCC1)(c1ccccc1)c1ccccc1` the IC50 was > 10 µM (parasite proliferation, SYBR Green; 3D7; erythrocytic stage).
The IC50 of `CC(C)(C)NC(=O)[C@@H]1CN(Cc2cnc3occc3c2)CCN1C[C@@H](O)C[C@@H](Cc1ccccc1)C(=O)N[C@H]1c2ccccc2C[C@H]1O` is reported as 10.8 µM (parasite growth, inhibitor, SYBR Green I; Cam3.1 R539T (MRA-1240)).
The IC50 of `Ic1ccc(N2CCN(Cc3c[nH]c4ncccc34)CC2)cc1` is reported as 31 µM (growth, SYBR Green; FVO; 36 h).
`C=CCc1ccccc1OCC(O)CNC(C)C` (stereo not drawn) gave an IC50 of 2 µM (GB4).
For `CC(O)(CS(=O)(=O)c1ccc(F)cc1)C(=O)Nc1ccc(C#N)c(C(F)(F)F)c1` (stereo not drawn), the IC50 was > 10 µM (SYBR Green I; 3D7; 48 h, ring stage).
With `CC(C)(C)C(O)C(Oc1ccc(-c2ccccc2)cc1)n1cncn1` (stereo not drawn) the IC50 was 22.9 µM (parasite growth, inhibitor, SYBR Green I; 3D7).
The IC50 of `CCCCCCCCCCOc1cc2c(O)c(C(=O)OCC)cnc2cc1OCC` is reported as < 0.0057 µM (parasite growth, SYBR Green; FCB).
With `NC(N)=Nc1ccc(-c2ccc(-c3ccc(N=C(N)N)c(Cl)c3)o2)cc1Cl` the IC50 was 0.337 µM (parasite growth, inhibitor, SYBR Green I; Cam3.1 R539T (MRA-1240)).
The IC50 of `CC[N+](CC)(CC)CCOc1ccc(/C=C/c2ccccc2)cc1` is reported as 1 µM (GB4).
For `CO[C@H]1C[C@@H](C[C@H](C)[C@H]2CC(=O)[C@@H](C)/C=C(\C)[C@H](O)[C@H](OC)C(=O)[C@@H](C)C[C@@H](C)/C=C/C=C/C=C(\C)[C@H](OC)C[C@H]3CC[C@H](C)[C@](O)(O3)C(=O)C(=O)N3CCCC[C@@H]3C(=O)O2)CC[C@@H]1OCCO` (racemic), the IC50 was 2.68 µM (parasite growth, inhibitor, SYBR Green I; Cam3.1 R539T (MRA-1240)).
With `N=C(CC(O)c1cc2c(F)cc(F)cc2c2cc(C(F)(F)F)ccc12)Nc1cccc(F)c1` (stereo not drawn) the IC50 was 0.0031 µM (parasite growth, HRP2-ELISA; clinical isolates from Gabon; ex vivo, median).
For `C[C@H]1c2cccc(O)c2C(=O)C2=C(O)[C@]3(O)C(=O)C(C(N)=O)=C(O)[C@@H](N(C)C)[C@@H]3[C@@H](O)[C@@H]21`, the IC50 was 10 µM (D10).
`CN(Cc1ccco1)c1ncnc2ccc(-c3ccoc3)cc12` has an IC50 of 32 µM (growth, SYBR Green; FVO; 36 h).
`CC(C)(C)[C@]1(O)CCN2C[C@H]3c4ccccc4CCc4cccc(c43)[C@@H]2C1` has an IC50 of 7.94 µM (D10).
`N=C(CC(O)c1cc2c(F)cc(F)cc2c2cc(C(F)(F)F)ccc12)Nc1cc(F)c(F)c(F)c1` (stereo not drawn) gave an IC50 of 0.0064 µM (parasite growth, HRP2-ELISA; clinical isolates from Gabon; ex vivo, median).
`Cc1nc(-c2ccc(OCC(C)C)c(C#N)c2)sc1C(=O)O` — result for IC50: “inactive” (growth, SYBR green; FVO; 36 h).
The IC50 of `N=C(CC(O)c1cc2c(F)cc(F)cc2c2cc(C(F)(F)F)ccc12)Nc1ccc(Br)c(F)c1` (stereo not drawn) is reported as 0.0017 to 0.0299 µM (parasite growth, HRP2 ELISA; clinical isolates from Gabon; ex vivo, range over isolates).
The IC50 of `CC(=O)c1c(O)c(C)c(O)c2c1OC1=CC(=O)C(=C(C)NCCCC(=O)O)C(=O)C12C` (stereo not drawn) is reported as 12.7 µM (parasite growth, [3H]hypoxanthine incorporation; K1; erythrocytic stages).
`Cl.O[C@]12C=C(c3nccc4c3[nH]c3ccccc34)[C@@H]3CCN(CCCC/C=C\CC1)C[C@@]31C[C@@H]3/C=C\CCCCN3[C@H]12` gave an IC50 of 0.0073 ± 0.00155 µg/mL (W2, chloroquine-resistant; 72 h).
For `COC(=O)c1c(-c2cc(OC)c(OC)c(OC)c2)c2ccc(OCc3ccccn3)cc2c(=O)n1-c1ccc(N)cc1`, the IC50 was 2.51 µM (GB4).
The IC50 of `CCC1=C(CC)/C(=C/NC2CCCCC2)N=C1c1ccc(C)[nH]1` is reported as 0.0356 µM (parasite growth, ex vivo SYBR Green; Ugandan clinical isolates; 72 h, geometric mean).
`CC(CN1c2ccccc2Sc2ccccc21)N(C)C` (stereo not drawn) gave an IC50 of 10 µM (HB3).
`CN1CCN(c2ncc3nc(-c4cn(C)c5ccccc45)c(=O)n(C)c3n2)CC1` has an IC50 of 33 µM (growth, SYBR Green; FVO; 36 h).
With `Cl.Oc1cccc2c1[nH]c1c(C3=CC4(O)CC/C=C\CCCCN5CCC3C3(CC6/C=C\CCCCN6C43)C5)nccc12` (single isomer, unassigned; (+)) the IC50 was 0.0365 ± 0.0015 µg/mL (W2, chloroquine-resistant; 72 h).
`CC1(C)N=C(N)N=C(N)N1c1ccc(Cl)cc1` gave an IC50 of 5.91 ± 1.62 µM (growth, [3H]-hypoxanthine uptake; FCR3; 48 h).
The IC50 of `COc1cc2c(cc1O)[C@@H](Cc1ccc(O)cc1)[N+](C)(C)CC2` is reported as 59.6 µM (parasite growth, inhibitor, SYBR Green I; Cam3.1 R539T (MRA-1240)).
The IC50 of `COC1=CC(c2ccc[nH]2)=N/C1=C\c1[nH]c(Cc2ccc(OC(F)(F)F)cc2)cc1Cc1ccc(OC(F)(F)F)cc1` is reported as 0.0343 µM (parasite growth; DR4, artemisinin-resistant; 72 h, synchronized rings).
